Measurements collected from several papers.
Parts stem from different laboratories: compare values within a part only. Substitutions count along the parent as printed.

Sample 1
Target: RING finger protein unkempt homolog, zinc fingers 1-6, GST-SBP tag (UNK, Homo sapiens, UniProt Q9C0B0, residues 30-357)
UniProt Q9C0B0, sequence (30-357, looked up): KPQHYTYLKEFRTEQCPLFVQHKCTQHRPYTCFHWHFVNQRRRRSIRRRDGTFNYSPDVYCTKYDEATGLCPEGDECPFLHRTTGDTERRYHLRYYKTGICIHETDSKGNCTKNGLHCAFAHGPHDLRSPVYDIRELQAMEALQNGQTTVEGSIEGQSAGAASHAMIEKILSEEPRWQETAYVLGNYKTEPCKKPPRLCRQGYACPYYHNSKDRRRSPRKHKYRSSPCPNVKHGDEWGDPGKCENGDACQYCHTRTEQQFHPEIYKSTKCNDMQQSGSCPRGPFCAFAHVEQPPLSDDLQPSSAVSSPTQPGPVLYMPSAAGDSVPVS
Method: RNA Bind-n-Seq
Molecule type: RNA
Medium: in vitro
Tested at: not given
Notes: RNA with constant flanks, human and mouse sites, ends assumed
Relative to: input RNA pool
Direction: higher = stronger binding
Measurement: bound/input enrichment
All sequences stand within: GGGAGUUCUACAGUCCGACGAUC … CAACAGAGGAUUGAGCAUCA
AGCCCAAAUCAUGCGGUGGUGCACGGCAACCUGGCUUGUGUGUACUACGAGCAAGGCCUAAUAGACCUGGCCAUUGAUACCUACAGGAGAGCUAUCGAACUGCAACCCCAUUUCCCCGAU: 0.0677 ratio
UCUUGUAGAAGAUGGACUCUGAAAAACAUUCCAGGAAACCAUGGCAGCAUGGAGAGCCUCUUAGUGAUUGUGUCUGCAUUGUUAUUGUGGAAGAUUUACCUUUUCUGUUGUACGUAAAGC: 0.515 ratio
CCUCUGGCCACUUAUGCCCCUGUCAUCUCUGCUGAGAAAGCCUACCAUGAGCAGCUUACAGUAGCAGAGAUCACCAAUGCCUGCUUUGAGCCAGCCAACCAGAUGGUGAAAUGUGACCCU: 0.151 ratio
CUGGGAGAUCUUCGAACUUUGGAAUUGCUUCUUAUCUGUGCAGGCCACCCUCAGUAUGAGGUAGUAGAAAUUUCCUUUAACUUUUGGUACCGACUAGGAGAACAUUUAUACAAAACCAAU: 0.787 ratio
GAAAGGCCGGACCUCAGGGAAAAGGUCAUUAAAGGGGCAGAGAUCCUUGAAGUGUUGCACAGUCUUCCAGCAGUUCGGCAGUAUCUGUUUUCUCUCUAUGAAUGCCGUUAUUCAGUUUUU: 0.113 ratio
AAGACGAAGCUGGACACUCUAGCCACUGGUCAUCUCUUCCAGGAAGUGAGGUGCAUGAAACUAGUGCAGCACCCCAACAUUGUGCGUCUCUAUGAAGUCAUAGACACCCAGACCAAACUU: 0.119 ratio
AGAAAAAUACAUCUUUCUGAAUUAAUGCUGGAGAAAUGCCCUUUUCCUGCUGGCUCGGAUUUAGCACAAAAGUGGCAUUUGAUUAAACAGCAUACCGCCCCUGUGAGCCCACACUCAACA: 0.0992 ratio
CUCGAGCUACAUUGUGUGUUUUGACUGUUUUAUUUAAGGGAUUGGAGUGGGUUGUGUUUGUUUUUUUUUUAUCACACGUAGAGUGCCCGUUCCCUGGCAGGCCUAGGUUGCCACUCCUCU: 0.819 ratio

Sample 2
Target: MAFF, bZIP domain (human)
Method: DHFR protein complementation
Medium: yeast
Notes: single substitutions, most at no-binding floor
Relative to: wild-type JUN-FOS pair
Direction: higher = stronger binding
Measurement: binding fitness
Parent: JUN, bZIP domain (human); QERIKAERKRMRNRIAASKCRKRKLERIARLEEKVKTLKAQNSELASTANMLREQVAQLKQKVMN; partner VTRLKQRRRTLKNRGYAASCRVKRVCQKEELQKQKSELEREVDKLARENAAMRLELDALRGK
A40S: -1.46 natural log
T48P: -1.43 natural log
L38F: -1.56 natural log
A49V: -1.2 natural log
N42S: -1.43 natural log
E32W: -1.51 natural log
A46E: -1.45 natural log
L52A: -1.57 natural log
L45C: -1.57 natural log
E44R: -1.38 natural log
I28F: -1.12 natural log
Q41G: -1.52 natural log
T37K: -1.4 natural log
E44K: -1.5 natural log
R53F: -1.37 natural log
M51G: -1.51 natural log
S43P: -1.49 natural log
L52Q: -1.43 natural log
Q55Y: -1.49 natural log
E32S: -1.5 natural log
K36E: -1.21 natural log
L31W: -1.45 natural log
L52H: -1.49 natural log
A57W: -1.47 natural log
I28H: -1.49 natural log

Sample 3
Target: Fragile X messenger ribonucleoprotein 1, C-terminal low-complexity region (Fmr1, Mus musculus, UniProt P35922)
Method: RNA Bind-n-Seq
Molecule type: RNA
Medium: in vitro
Tested at: 200 nM
Notes: whole 134-nt RNA, ends assumed
Together with: 150 mM KCl
Relative to: input library
Direction: higher = stronger binding
Measurement: log2 enrichment
All sequences stand within: GGGAGUUCUACAGUCCGACGAUC … UGGAAUUCUCGGGUGUCAAGG
UGGCCCUGGUGGCAUGCGGGGAGGAAGAAGUGGCCUCAUGGAUCGUGGUGGUCCCGGUGGAAUGUUCAGAGGUGGCCGUGGUGGAGACAG: 0.0888
ACCAUGCAGGUGGGCAUCUUUGGGAAGUGGGGCAAGGGGGGGAUAGGGAGGGGGGUCACACUUUGGGAACAGGUGGUCCCAGGUCGUUUC: 1.11
UGGGAGGUGGAUUUUGUUUAUUUUUUUAGCUCAUUUCCAUGGGUGGGAAUUUUUUUUUAAUAUGUGUCAUGAAUAAAGUUGUUUUUGAAA: -0.0699
ACCAUGCAGGUGGGCAUCUUUGGGAAGUGGGGCAAGGGGGGGAUAGGGAGGGGGGUAACACUUUGGGAACAAAAGGUCCCAGGUCGUUUC: 0.835
UCCUGUGCUACACAUCGUAUGUACCGAAUCGGCCCCCCGGGGCCCCCCGGCCCCCCGGGGAAAGUAUUAUGUUACGCCGUUCGGAUCUGC: -0.431
GUCCUGUGCUACACAUCGUAUGUACCGAAUCGGGGUUUGGGGAAAAAGGGGUUUGGGGAAAGUAUUAUGUUACGCCGUUCGGAUCUGCAC: 0.789
UGGUGGACAGAAGGCACUGCAGCCUGAAAUGGCAGAGUCUGGUGCUGACGAUCCGCGAGAAGAUCAAUGCUGCCAUCCAGGACAUGCCAG: -1.49
UCAAGUCCUGUGCUACACAUCGUAUGUACCGAAUCGGGUGGGUUUUUGGGAGGGAAAGUAUUAUGUUACGCCGUUCGGAUCUGCACUUCC: 1.21
CUCAAGUCCUGUGCUACACAUCGUAUGUACCGAAUCGGGAAAGGGUGGGAGGGAAAGUAUUAUGUUACGCCGUUCGGAUCUGCACUUCCA: 1.29

Sample 4
Target: RNA binding protein fox-1 homolog 2, RRM domain, GST-SBP tag (RBFOX2, Homo sapiens, UniProt O43251-10, residues 100-194)
Method: RNA Bind-n-Seq
Molecule type: RNA
Medium: in vitro
Tested at: 365 nM
Notes: natural RNA segment, single round, ends assumed
Relative to: no-protein control
Direction: higher = stronger binding
Measurement: RBNS enrichment (R)
All sequences stand within: GGGAGUUCUACAGUCCGACGAUC … UGGAAUUCUCGGGUGCCAA
Residues (chain): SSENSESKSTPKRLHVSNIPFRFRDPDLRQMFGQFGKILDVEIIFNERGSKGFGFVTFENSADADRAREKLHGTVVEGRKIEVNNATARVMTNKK
GGAGCAGCCGGCCUGUGACACCUGAAGCCGCCAGCUCGCCACAGGGGCCAGGGAGCUGGAGAUGGCCUCCAGCGUCAGUGCCAAGACUGAGCGGGCCCUCCAGUGUUGUC: 0.501
GUGCAUUCAUCUUUAGGUGACUGAAUGUUAAGAAAUCUGUGUGCAUAGUUACUAAGUUUUUAUGAACUGUUGUGUCCUGUUAAUGCAUAUUGCCCUGUGACUCCAGUAUA: 0.369
CUGGUGUUAGAUUGUUUUGAAUUCUGUUGUCCACAAGAACUCUGUUCUCGUGUUCUUUUGUUUCCGAGUGCUUAUAAUGCAUGUAGACCUUGUUCUUCGUGAUCCUGCUA: 1.55
UCAAGAGCAGUGCUUCUCCAUUUGUUUUGCAGAGAAAUGUUUUUCAUUUCCCGUGUGUUUCCAUUUCCUUCUGAAAUUCUGAUUUUAUCCAUUUUUUUAAGGCUCCUCUU: 0.956
AUUUCAAGAAGAUGAUUGGAGUAUAAGGAUUAUCAUUUUGUUAGGUAGAGUUUCUUUUUUUCUUUUUGUAAUCAUGAGUUCCCUUGACUCCCCUCUUGAUUUUCUAUCUU: 0.698
AUGGGAACCCACCUCCUGCAUCAGUGUGACCUGGAUGUGAGACAUGGAGUCAAAGGAGACCAUUUUGGAGCUUUAAGAUUUAACUGCCCUGCUGGAUUUCAGACUUGCAU: 0.427
UGCCCUAUUUGUAGUCUCCACCUCUCUGCACAGCUCCUUCUGGGUGGUCCUCAGCAGGGUUUUGACCUUGAUUGGCGGCUACUCUGGCAACCACUGCCCAUUCUUCUAAU: 0.378
GCCAGUUACCAAGAUGGAAUGGAGUUGUGACCCAGUAACUGUGUCACGAGAGACCAUGUAUAUAAAAUAGUCAUGACGACACUGACCUCUUGCACUUGUACAUAACUAUA: 0.305

For quick reference, copied from above (sample 4):
GUGCAUUCAUCUUUAGGUGACUGAAUGUUAAGAAAUCUGUGUGCAUAGUUACUAAGUUUUUAUGAACUGUUGUGUCCUGUUAAUGCAUAUUGCCCUGUGACUCCAGUAUA: 0.369
UGCCCUAUUUGUAGUCUCCACCUCUCUGCACAGCUCCUUCUGGGUGGUCCUCAGCAGGGUUUUGACCUUGAUUGGCGGCUACUCUGGCAACCACUGCCCAUUCUUCUAAU: 0.378
GCCAGUUACCAAGAUGGAAUGGAGUUGUGACCCAGUAACUGUGUCACGAGAGACCAUGUAUAUAAAAUAGUCAUGACGACACUGACCUCUUGCACUUGUACAUAACUAUA: 0.305
AUUUCAAGAAGAUGAUUGGAGUAUAAGGAUUAUCAUUUUGUUAGGUAGAGUUUCUUUUUUUCUUUUUGUAAUCAUGAGUUCCCUUGACUCCCCUCUUGAUUUUCUAUCUU: 0.698
UCAAGAGCAGUGCUUCUCCAUUUGUUUUGCAGAGAAAUGUUUUUCAUUUCCCGUGUGUUUCCAUUUCCUUCUGAAAUUCUGAUUUUAUCCAUUUUUUUAAGGCUCCUCUU: 0.956
AUGGGAACCCACCUCCUGCAUCAGUGUGACCUGGAUGUGAGACAUGGAGUCAAAGGAGACCAUUUUGGAGCUUUAAGAUUUAACUGCCCUGCUGGAUUUCAGACUUGCAU: 0.427
